Measured values from different studies.
Each line is one published result; not all experiments were run side by side. Values joined by “and” are separate records of one study, mostly repeats; a detail may differ. ± marks the error that the study gave.
rep methyltransferase: Replicase polyprotein 1ab, methyltransferase (rep, Severe acute respiratory syndrome coronavirus 2, UniProt P0DTD1)
rep main protease: Replicase polyprotein 1ab, main protease (rep, Severe acute respiratory syndrome coronavirus 2, UniProt P0DTD1)
rep nsp14: Replicase polyprotein 1ab, nsp14 (rep, Severe acute respiratory syndrome coronavirus 2, UniProt P0DTD1)
Spike glycoprotein: Spike glycoprotein (Severe acute respiratory syndrome coronavirus 2, UniProt P0DTC2)
rep papain-like protease: Replicase polyprotein 1ab, papain-like protease (rep, Severe acute respiratory syndrome coronavirus 2, UniProt P0DTD1)
rep nsp13 helicase: Replicase polyprotein 1ab, nsp13 helicase (rep, Severe acute respiratory syndrome coronavirus 2, UniProt P0DTD1)

For `Oc1cc(O)cc(/C=C/c2ccc(O)c(O)c2)c1`, the IC50 was 27.5 µM (rep methyltransferase; enzyme activity, inhibitor).
For `Cc1nn(-c2ccc(Cl)cc2)c2c1C(c1ccc(Cl)cc1Cl)C(C#N)=C(N)O2` (centres unmarked), the IC50 was 3.68 µM (rep main protease; 3CL protease activity; 60 min).
For `COc1ccccc1CNC(=O)c1cc(S(=O)(=O)N2CCC(C(F)F)CC2)c(C)n1C`, the IC50 was 0.086 µM (rep nsp14; inhibitor).
For `Nc1ncnc2c([C@@H]3N[C@H](CO)[C@@H](O)[C@H]3O)c[nH]c12`, the inhibition was 3.5% (Lassa mammarenavirus; viral replication; HeLa, Josiah; 6.3 µM).
`COc1c(/C=C/C(=O)c2ccc(O)cc2)ccc(O)c1O` gave a Kd of 118 µM (Spike glycoprotein; binding, biolayer interferometry).
`CCC(C(=O)Nc1ccccc1C)n1cccc2nc(S(=O)(=O)Cc3ccc(F)cc3)nc1-2` (centres unmarked) has an IC50 of 4.82 µM (rep papain-like protease; enzyme activity, inhibitor).
`Cn1cnc(Cn2c(=O)[nH]/c(=N\c3cc4cn(C)nc4cc3Cl)n(Cc3cc(F)c(F)cc3F)c2=O)n1`: “any TEAE, moderate severity” 12.5% (human, mild renal impairment; oral, 375 mg).
`CC1CC(c2ccc(C(=O)O)cc2)=NN1c1ccc(C#N)cc1` (centres unmarked) gave an IC50 of 39.8 µM (rep methyltransferase; enzyme activity, inhibitor).
For `O=C(CSc1nc2ccsc2c(=O)n1CC1CCC(C(=O)O)CC1)c1ccc(Cl)cc1` (centres unmarked), the IC50 was greater than 150 µM (rep nsp13 helicase; helicase ATPase activity, inhibitor, Kinase-Glo luminescence).
With `O=C(Nc1ncc([N+](=O)[O-])s1)c1ccccc1O` the IC50 was 98 µM (rep methyltransferase; enzyme activity, inhibitor).
The IC50 of `CCOC(=O)c1c(NC(=O)c2cc3ccccc3o2)sc(C)c1-c1ccccc1` is reported as 97.9 µM (Replicase polyprotein 1ab, nsp14 N7-methyltransferase (rep, Severe acute respiratory syndrome coronavirus 2, UniProt P0DTD1); N7-methyltransferase activity, inhibitor, Py-FLINT).
`O=C1/C(=C/C=C/c2ccco2)SC(=S)N1c1ccc(O)cc1` gave an IC50 of 3 µM (rep nsp13 helicase; helicase ATPase activity, inhibitor, Kinase-Glo luminescence; 60 min, added: 2.5 µM ATP).
For `O=[N+]([O-])[O-].[Ag+]`, the IC50 was greater than 50 µM (rep main protease; enzyme activity, inhibitor).
`CCC[C@@]1(CCc2ccccc2)CC(O)=C([C@H](CC)c2cccc(NS(=O)(=O)c3ccc(C(F)(F)F)cn3)c2)C(=O)O1` gave an IC50 of 3.23 ± 0.14 µM (rep main protease; enzyme activity, inhibitor; added: fluorogenic substrate).
For `NCCOc1cc(C(=O)Nc2cc(OCCN)c3ccccc3n2)nc(C(=O)Nc2cc(OCCN)c3ccccc3n2)c1`, the IC50 was less than 10 µM (rep methyltransferase; enzyme activity, inhibitor; pH 7.5).
With `Cc1ccccc1NC(=O)CSc1nnc(-c2ccco2)c(-c2ccco2)n1` the IC50 was 26 µM (rep nsp13 helicase; helicase ATPase activity, inhibitor, Kinase-Glo luminescence; 60 min, added: 2.5 µM ATP).
The IC50 of `CCn1c[n+](CC)c2ccccc21.[Ag][I]` is reported as greater than 50 µM (rep main protease; enzyme activity, inhibitor).
`CNC(=O)[C@@H](NC(=O)[C@H](CC(C)C)[C@H](O)C(=O)NO)C(C)(C)C` gave an inhibition of 15.2% and 15.5% and 15.7% (prothrombin time; human platelet-poor plasma; 10 µM, added: AP venom).
With `Cc1ccc(-n2cccc2/C=C2\C(=N)N3N=C(c4ccco4)SC3=NC2=O)cc1` the IC50 was 3 µM (rep nsp13 helicase; helicase ATPase activity, inhibitor, Kinase-Glo luminescence; 60 min, added: 2.5 µM ATP).
With `CC(=O)N[C@@H](CS)C(=O)O` the IC50 was greater than 150 µM (rep nsp13 helicase; helicase dsDNA unwinding, inhibitor; based on Bi content).
With `O=C(O)C1=C(CSc2nnnn2CS(=O)(=O)O)CS[C@@H]2[C@H](NC(=O)[C@H](O)c3ccccc3)C(=O)N12` the IC50 was 2.17 µM (rep papain-like protease; enzyme activity, inhibitor).
The IC50 of `CCOc1ccc(/C=C/C(=O)c2cc(Br)ccc(=O)c2O)cc1` is reported as 6 µM (rep nsp13 helicase; helicase ATPase activity, inhibitor, Kinase-Glo luminescence; 60 min, added: 2.5 µM ATP).
The IC50 of `C[C@@H]1O[C@@H](O[C@@H]2[C@@H](O)[C@H](OCCc3ccc(O)c(O)c3)O[C@H](CO)[C@H]2OC(=O)/C=C/c2ccc(O)c(O)c2)[C@H](O)[C@H](O)[C@H]1O` is reported as 39.8 ± 1.69 µM (rep main protease; enzyme activity, inhibitor; added: fluorogenic substrate).
`O=c1c(O)c(-c2ccc(O)cc2)oc2cc(O)cc(O)c12` gave a Kd of 33.3 µM (Spike glycoprotein; binding, BLI).
The IC50 of `COC(=O)c1ccccc1NC(=O)c1ccc2c(c1)CC(c1ccc(F)cc1)OC2=O` (centres unmarked) is reported as greater than 250 µM (rep methyltransferase; enzyme activity, inhibitor).
With `CCC(C(=O)Nc1cnn(C)c1)n1cccc2nc(SCc3ccc(F)cc3)nc1-2` (centres unmarked) the IC50 was greater than 20 µM (rep papain-like protease; enzyme activity, inhibitor).
`N#C/C(=C\c1ccc(O)c([N+](=O)[O-])c1)c1nc2ccccc2s1` gave an IC50 of greater than 150 µM (rep nsp13 helicase; helicase ATPase activity, inhibitor, Kinase-Glo luminescence).
For `COc1ncc(-c2ccc3nccc(-c4ccnnc4)c3c2)cc1NS(=O)(=O)c1ccc(F)cc1F`, the IC50 was 5.5 to 55 µM (rep nsp14; methyltransferase activity, inhibitor, RapidFire MS, measured: SAH).
With `O=[N+]([O-])c1cc(Cc2ccccc2)cc(/C=N/c2ccc(N3CCOCC3)cc2)c1O` the IC50 was 3 µM (rep nsp13 helicase; helicase ATPase activity, inhibitor, Kinase-Glo luminescence; 60 min, added: 2.5 µM ATP).
For `CCn1ccc(-c2cc(-c3cnn(C)c3)cc([C@@H](C)NC(=O)c3ccccc3CCC(=O)NNC(C)=O)c2)n1`, the IC50 was greater than 10 µM (rep papain-like protease; enzyme activity, inhibitor).
`CC[C@@]1(O)C[C@H](O[C@H]2C[C@H](N(C)C)[C@H](O[C@H]3C[C@H](O)[C@H](O[C@H]4CCC(=O)[C@H](C)O4)[C@H](C)O3)[C@H](C)O2)c2c(cc3c(c2O)C(=O)c2c(O)cccc2C3=O)[C@H]1C(=O)OC` gave an IC50 of 0.383 µM (Replicase polyprotein 1ab, nsp12 RdRp (rep, Severe acute respiratory syndrome coronavirus 2, UniProt P0DTD1); RdRp-dependent reporter gene, GLuc reporter; HEK293T; 24 h).
With `N#Cc1ccccc1-c1cc(-c2ccccn2)cn(-c2ccccc2)c1=O` the IC50 was 100 to 250 µM (rep main protease; enzyme activity, inhibitor, FRET).
With `CCC(C(=O)Nc1ccccc1C)n1cccc2nc(S)nc1-2` (centres unmarked) the IC50 was greater than 20 µM (rep papain-like protease; enzyme activity, inhibitor).
For `CC[C@H](C)[C@H](NC(=O)[C@H](CC(C)C)NC(=O)[C@H](Cc1c[nH]c2ccccc12)NC(=O)[C@H](CCC(N)=O)NC(=O)[C@@H](NC(=O)[C@H](Cc1ccccc1)NC(=O)[C@H](C)NC(=O)[C@H](CCCCNC(=O)COCCOCCNC(=O)COCCOCCNC(=O)CC[C@H](NC(=O)CCCCCCCCCCCCCCCCCCC(=O)O)C(=O)O)NC(=O)[C@H](CCC(N)=O)NC(=O)[C@H](C)NC(=O)[C@@H](NC(=O)[C@H](CCCCN)NC(=O)[C@H](CC(=O)O)NC(=O)[C@H](CC(C)C)NC(=O)C(C)(C)NC(=O)[C@@H](NC(=O)[C@H](CO)NC(=O)[C@H](Cc1ccc(O)cc1)NC(=O)[C@H](CC(=O)O)NC(=O)[C@H](CO)NC(=O)[C@@H](NC(=O)[C@H](Cc1ccccc1)NC(=O)[C@@H](NC(=O)CNC(=O)[C@H](CCC(=O)O)NC(=O)C(C)(C)NC(=O)[C@@H](N)Cc1ccc(O)cc1)[C@@H](C)O)[C@@H](C)O)[C@@H](C)CC)[C@@H](C)CC)C(C)C)C(=O)N[C@@H](C)C(=O)NCC(=O)NCC(=O)N1CCC[C@H]1C(=O)N[C@@H](CO)C(=O)N[C@@H](CO)C(=O)NCC(=O)N[C@@H](C)C(=O)N1CCC[C@H]1C(=O)N1CCC[C@H]1C(=O)N1CCC[C@H]1C(=O)N[C@@H](CO)C(N)=O`, the serum amylase was 84.2 ± 23.5 U/L (healthy subjects, single ascending dose; 2.5 mg, day 29).
For `O=C(N/N=C/c1cc(Cl)c(O)c(Cl)c1)c1cc2c(ccc3ccccc32)o1`, the IC50 was 22 µM (rep nsp13 helicase; helicase ATPase activity, inhibitor, Kinase-Glo luminescence; 60 min, added: 2.5 µM ATP).

A few entries again:
`CCC[C@@]1(CCc2ccccc2)CC(O)=C([C@H](CC)c2cccc(NS(=O)(=O)c3ccc(C(F)(F)F)cn3)c2)C(=O)O1` gave an IC50 of 3.23 ± 0.14 µM (rep main protease; enzyme activity, inhibitor; added: fluorogenic substrate).
For `NCCOc1cc(C(=O)Nc2cc(OCCN)c3ccccc3n2)nc(C(=O)Nc2cc(OCCN)c3ccccc3n2)c1`, the IC50 was less than 10 µM (rep methyltransferase; enzyme activity, inhibitor; pH 7.5).
With `Cc1ccccc1NC(=O)CSc1nnc(-c2ccco2)c(-c2ccco2)n1` the IC50 was 26 µM (rep nsp13 helicase; helicase ATPase activity, inhibitor, Kinase-Glo luminescence; 60 min, added: 2.5 µM ATP).
